{"data": "Measurements pooled from the literature", "target": "ATP-dependent translocase ABCB1 (ABCB1, Homo sapiens, UniProt P08183)", "note": "Protocols differ between the studies behind these lines. ± gives the spread as reported.", "chain of UniProt P08183 (whole entry, looked up)": "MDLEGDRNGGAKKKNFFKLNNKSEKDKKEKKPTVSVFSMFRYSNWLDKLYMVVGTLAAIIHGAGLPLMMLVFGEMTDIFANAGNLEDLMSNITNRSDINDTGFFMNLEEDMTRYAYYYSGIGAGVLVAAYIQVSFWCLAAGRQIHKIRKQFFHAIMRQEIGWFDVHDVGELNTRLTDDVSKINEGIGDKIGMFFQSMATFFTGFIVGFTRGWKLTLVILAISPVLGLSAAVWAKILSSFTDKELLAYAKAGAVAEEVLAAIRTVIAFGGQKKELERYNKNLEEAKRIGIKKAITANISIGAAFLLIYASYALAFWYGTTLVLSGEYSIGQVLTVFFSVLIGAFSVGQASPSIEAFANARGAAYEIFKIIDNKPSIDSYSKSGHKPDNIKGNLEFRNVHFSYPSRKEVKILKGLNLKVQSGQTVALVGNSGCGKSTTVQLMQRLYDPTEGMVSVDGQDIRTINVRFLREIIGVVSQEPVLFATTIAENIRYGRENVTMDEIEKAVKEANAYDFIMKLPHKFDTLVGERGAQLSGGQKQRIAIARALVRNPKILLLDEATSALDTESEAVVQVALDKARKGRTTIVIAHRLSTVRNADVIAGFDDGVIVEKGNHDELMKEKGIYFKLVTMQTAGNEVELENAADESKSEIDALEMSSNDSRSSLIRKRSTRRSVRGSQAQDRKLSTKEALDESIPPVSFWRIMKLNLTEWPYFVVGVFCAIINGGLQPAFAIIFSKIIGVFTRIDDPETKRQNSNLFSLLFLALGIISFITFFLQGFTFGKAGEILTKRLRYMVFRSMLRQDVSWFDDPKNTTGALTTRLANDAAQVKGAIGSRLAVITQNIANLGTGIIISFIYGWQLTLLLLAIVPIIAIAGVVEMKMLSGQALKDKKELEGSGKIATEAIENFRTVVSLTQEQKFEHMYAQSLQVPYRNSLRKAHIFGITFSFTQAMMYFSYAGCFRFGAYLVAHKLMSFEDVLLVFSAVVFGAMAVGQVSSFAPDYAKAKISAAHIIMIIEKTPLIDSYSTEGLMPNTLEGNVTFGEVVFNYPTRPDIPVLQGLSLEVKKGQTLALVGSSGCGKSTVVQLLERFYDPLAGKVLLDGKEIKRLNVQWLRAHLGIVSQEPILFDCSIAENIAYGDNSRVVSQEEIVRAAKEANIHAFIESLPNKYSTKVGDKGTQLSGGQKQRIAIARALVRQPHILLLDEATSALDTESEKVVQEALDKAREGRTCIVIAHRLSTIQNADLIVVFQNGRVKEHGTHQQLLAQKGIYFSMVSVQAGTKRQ"}
{"SMILES": "Cc1cc(Nc2ncnc3ccc(NC4=NC(C)(C)CO4)cc23)ccc1Oc1ccn2ncnc2c1", "assay": "substrate, bidirectional transwell permeability", "test system": "MDCKII cells transfected with ABCB1", "setting": "1 µM, 1 h, pH 7.4", "scale": "reference: without over with elacridar", "quantity": "net efflux ratio", "value": 13.7}
{"SMILES": "CC(=O)c1cc(C(=O)N[C@@H](C)Cn2ccc(-c3ccc(C#N)c(Cl)c3)n2)[nH]n1", "assay": "inhibitor", "test system": "MDCK", "setting": "with: digoxin substrate", "quantity": "IC50", "value": "2.6 µM"}
{"SMILES": "CC(=O)N1CCN(c2cc(-c3ccccc3)nc3cc(-c4cccc(Cl)c4)nn23)CC1", "assay": "JC-1 efflux, inhibitor", "test system": "Jurkat-DNR", "quantity": "IC50", "value": "5.67 ± 2.21 µM"}
{"SMILES": "CC(C)(C)c1nc(-c2cccc(NS(=O)(=O)c3c(F)cccc3F)c2F)c(-c2ccnc(N)n2)s1", "assay": "transport", "test system": "MDCK-MDR1", "setting": "10 µM, 90 min", "scale": "reference: B-A over A-B", "quantity": "efflux ratio", "value": 17.9}
{"SMILES": "C#Cc1cc(N2CCN(C(=O)c3ccoc3)CC2)n2nc(-c3cccc(Cl)c3)cc2n1", "assay": "JC-1 efflux, inhibitor", "test system": "Jurkat-DNR", "quantity": "IC50", "value": "10.2 ± 3.99 µM"}
{"SMILES": "Cc1ccc(Nc2nccc(N(C)c3ccc4c(C)n(C)nc4c3)n2)cc1S(N)(=O)=O", "assay": "bidirectional transport", "test system": "MDCK-MDR1", "setting": "5 µM, 240 min, with: canertinib 5 µM", "quantity": "Papp B-A", "value": "4.02 ± 0.08 ×10⁻⁶ cm/s"}
{"SMILES": "CCOC(=O)c1csc([C@@H](NC(=O)c2csc([C@@H](NC(=O)c3csc([C@@H](N)C(C)C)n3)C(C)C)n2)C(C)C)n1", "assay": "calcein-AM efflux, flow cytometry", "test system": "HeLa transduced with BacMam ABCB1", "setting": "10 µM, 10 min, 5% FBS, with: calcein-AM 0.5 µM", "scale": "reference: 1 µM tariquidar", "quantity": "inhibition", "value": "55%"}
{"SMILES": "O=C(c1ccco1)N1CCN(c2cc(-c3ccccc3)nc3cc(-c4cccc(Cl)c4)nn23)CC1", "assay": "JC-1 efflux, inhibitor", "test system": "Jurkat-DNR", "quantity": "IC50", "value": "6.18 ± 4.92 µM"}
{"SMILES": "CC(C)[C@H](NC(=O)OC(C)(C)C)c1nc(C(=O)N[C@H](c2nc(C(=O)O)cs2)C(C)C)cs1", "assay": "calcein-AM efflux, flow cytometry", "test system": "HeLa transduced with BacMam ABCB1", "setting": "20 µM, 10 min, 5% FBS, with: calcein-AM 0.5 µM", "scale": "reference: 1 µM tariquidar", "quantity": "inhibition", "value": "< 5%"}
{"SMILES": "COc1cc2c(cc1OC)CN(CCc1ccc(NC(=O)c3cc(OC)c(OC)cc3NC(=O)c3cnc4ccccc4c3)cc1)CC2", "assay": "rhodamine-123 efflux", "test system": "human peripheral CD56+ lymphocytes", "setting": "490 ng/mL, ex vivo, mean plasma concentration, with: rhodamine-123 0.2 µg/mL", "quantity": "inhibition", "value": "100%"}
{"SMILES": "CCOC(=O)c1csc([C@@H](NC(=O)c2csc([C@@H](NC(=O)OC(C)(C)C)C(C)C)n2)C(C)C)n1", "assay": "Bodipy-FL-prazosin efflux, flow cytometry", "test system": "HeLa transduced with BacMam ABCB1", "setting": "20 µM, 45 min, 5% FBS", "scale": "reference: 1 µM tariquidar", "quantity": "inhibition", "value": "20%"}
{"SMILES": "O=C(Nc1cnn2ccc(N3CCC[C@@H]3c3cc(F)ccc3F)nc12)N1CC[C@H](O)C1", "test system": "LLC-PK1 cells expressing human ABCB1", "setting": "3.5 h, with: zosuquidar 1 µM", "scale": "apical to basolateral", "quantity": "Papp", "value": "5.19 ± 0.14 ×10⁻⁶ cm/s"}
{"SMILES": "O=C(c1ccccc1Cl)N1CCN(c2cc(-c3ccccc3)nc3cc(-c4cccc(Cl)c4)nn23)CC1", "assay": "JC-1 efflux, inhibitor", "test system": "Jurkat-DNR", "quantity": "IC50", "value": "1.85 ± 0.75 µM"}
{"SMILES": "COc1ccc(CNC(=O)c2csc([C@@H](NC(=O)c3csc([C@@H](NC(=O)OC(C)(C)C)C(C)C)n3)C(C)C)n2)c(OC)c1", "assay": "Bodipy-FL-prazosin efflux, flow cytometry", "test system": "HeLa transduced with BacMam ABCB1", "setting": "10 µM, 45 min, 5% FBS", "scale": "reference: 1 µM tariquidar", "quantity": "inhibition", "value": "87%"}
